{"data": "Measured values gathered from unrelated publications", "note": "Values joined by “and” are separate records of one study, mostly repeats; a detail may differ. Numbers after ± are the reported error."}
{"SMILES": "COc1ccccc1-c1ccncc1C(=O)Nc1nnc(OCc2ccc(Cl)cc2)s1", "target or system": "DLD-1 parental", "conditions": "0.125 µM", "scale": "baseline: untreated", "endpoint": "colony survival", "value": "95% and 97% and 92.2%"}
{"SMILES": "CC(C)C12OC1C1OC13C1(C)CCC4=C(COC4=O)C1CC1OC13C2OC(=O)CCCOC1OC(CO)C(O)C(O)C1O (stereo not drawn)", "target or system": "BXPC-3", "assay": "cell growth or viability, XTT", "conditions": "47 h", "endpoint": "IC50", "value": "5000 nM"}
{"SMILES": "CC(C)[C@H](NC(=O)[C@H](CCCNC(=N)N)NC(=O)[C@@H]1CCCN1C(=O)[C@@H](NC(=O)[C@H](C)NC(=O)[C@H](Cc1ccc(O)cc1)NC(=O)[C@H](CCC(N)=O)NC(=O)[C@H](CCCCN)NC(=O)[C@H](CCCNC(=N)N)NC(=O)[C@@H]1CCCN1C(=O)[C@H](CCC(=O)O)NC(=O)[C@@H](NC(=O)[C@H](C)N)[C@@H](C)O)[C@@H](C)O)C(=O)N[C@@H](Cc1ccccc1)C(=O)N[C@@H](Cc1c[nH]c2ccccc12)C(=O)N[C@H](C(=O)N[C@@H](CC(=O)O)C(=O)N[C@@H](C)C(=O)N1CCC[C@H]1C(=O)NCC(=O)NCCOCCOCCOCCOCCOCCOCCOCCOCCOCCOCCOCCOCCC(=O)N[C@@H](CS)C(N)=O)[C@@H](C)O", "target or system": "Calu-1 lung mucoepidermoid carcinoma", "assay": "cell binding, phage binding, item: output/input phage", "conditions": "10 min, 37 °C", "scale": "baseline: control phage", "endpoint": "selectivity ratio", "value": "1.4 ± 0.39"}
{"SMILES": "Cc1cc(Oc2nc(N3CC[C@@H](c4ccncc4)C3)ncc2F)[nH]n1", "target or system": "NCI-H460", "assay": "cell proliferation", "test system": "lung cancer", "endpoint": "IC50", "value": "37200 nM"}
{"SMILES": "CC(C)(C)C(=O)OCOP(=O)(OCOC(=O)C(C)(C)C)C1CCCN(O)C1=O (stereo not drawn)", "target or system": "RPMI-8226", "endpoint": "GI50", "value": "308 nM"}
{"SMILES": "CCOC(=O)C1(Cc2ccccc2)Oc2cc(F)ccc2N(Cc2ccccc2)C1=O (stereo not drawn)", "target or system": "HaCaT", "assay": "cell growth or viability, CCK-8", "conditions": "100 µM, 72 h", "endpoint": "inhibition", "value": "0.65%"}
{"SMILES": "NC(=S)N/N=C/c1ccc(OCc2cccc(F)c2)cc1", "target or system": "IMR-32", "conditions": "50 µg/mL, 24 h", "scale": "higher = more activity", "endpoint": "catalase activity (OD450)", "value": "0.078 a.u."}
{"SMILES": "CC1OC2OC3C4=C(OC3(C)C12O)C(=O)c1c(O)cccc1C4=O (stereo not drawn)", "target or system": "HT-29", "assay": "SRB", "conditions": "10 µg/mL, 48 h", "scale": "negative values mean cell killing", "endpoint": "growth percent", "value": "-32%"}
{"SMILES": "Cc1cc(Nc2nc(C[C@@]3(C(=O)O)CCN(Cc4cccc(Cl)c4F)[C@H](C)C3)cc(C)c2F)[nH]n1", "target or system": "Hs-578T", "assay": "cell growth or viability, ATP luminescence", "conditions": "5 days", "endpoint": "IC50", "value": "30.6 nM"}
{"SMILES": "O=C(O)c1ccc(-c2nc(-c3ccccc3Cl)c3sccn23)cc1", "target or system": "CD34+ hematopoietic stem cells", "conditions": "10 µM, day 7, without TPO", "endpoint": "CD41-positive cell number", "value": "642000 and 799000"}
{"SMILES": "O=C1NC2(CC2)COc2ncc(F)cc2[C@H]2COCCN2c2ccn3ncc1c3n2", "test system": "Sprague-Dawley rat, male, spleen", "conditions": "oral, 10 mg/kg/day, 4 weeks dosing, end of recovery", "endpoint": "organ-to-body weight ratio", "value": "0.218 ± 0.035%"}
{"SMILES": "C=CC12CN(C)C3C4COC(CC41)C1(C(=O)N(OC)c4ccccc41)C32 (stereo not drawn)", "target or system": "Vero", "assay": "CCK-8", "conditions": "up to 100 µM, 24 h", "endpoint": "viability", "value": "no effect"}
{"note": "For quick reference, copied from above:"}
{"SMILES": "C=CC12CN(C)C3C4COC(CC41)C1(C(=O)N(OC)c4ccccc41)C32 (stereo not drawn)", "target or system": "Vero", "assay": "CCK-8", "conditions": "up to 100 µM, 24 h", "endpoint": "viability", "value": "no effect"}
